Measured values from different studies.
Compare with care: the assays were run in different laboratories. ± marks the error that the study gave.
UniProt O00425, sequence (whole entry, looked up): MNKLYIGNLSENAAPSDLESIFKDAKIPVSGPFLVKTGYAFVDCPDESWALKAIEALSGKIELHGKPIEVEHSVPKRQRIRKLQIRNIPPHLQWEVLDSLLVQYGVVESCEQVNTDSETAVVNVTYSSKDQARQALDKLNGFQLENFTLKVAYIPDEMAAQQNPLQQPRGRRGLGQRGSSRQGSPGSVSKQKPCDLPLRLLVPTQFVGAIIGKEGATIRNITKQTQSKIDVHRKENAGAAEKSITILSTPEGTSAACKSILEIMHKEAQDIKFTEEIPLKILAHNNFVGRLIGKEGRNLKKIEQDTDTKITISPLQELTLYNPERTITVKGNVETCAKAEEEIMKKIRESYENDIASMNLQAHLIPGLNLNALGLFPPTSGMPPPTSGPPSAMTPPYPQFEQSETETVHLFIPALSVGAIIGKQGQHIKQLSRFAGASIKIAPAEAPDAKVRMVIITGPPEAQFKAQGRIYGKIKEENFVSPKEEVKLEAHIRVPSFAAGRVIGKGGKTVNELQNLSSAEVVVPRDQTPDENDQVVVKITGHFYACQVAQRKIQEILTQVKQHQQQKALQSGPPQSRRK

COCCOCCOCCNC(=O)CSc1nc(-c2ccccc2)cc(C)c1C#N  viability (MDA-MB-231; MTT; 100 µM, 72 h): 55 ± 9%
CC(C)CC(=O)OC[C@H]1O[C@@](C#N)(c2ccc3c(N)ncnn23)[C@H](O)[C@@H]1O  efflux ratio (Caco-2; 90 µM, 2 h): 2.62
O=C(Nc1cccnn1)N1CCC(=Cc2cccc(Oc3ccc(C(F)(F)F)cn3)c2)CC1  compound concentration (COS cells expressing human FAAH; cell lysate; 100 nM, 0 h, quantification limit 5 nM): not detected
Cc1cc(C)c(C#N)c(SC=CC(=O)Nc2ccon2)n1  viability (MDA-MB-231; MTT; 100 µM, 72 h): 66 ± 4%
CN(C(=O)n1cnc(-c2ccc[n+]([O-])c2)c1)C1CCCCC1  concentration (COS cells expressing human FAAH; COS cell culture supernatant; 100 nM, 3 h): 101 ± 1.2 nM
C[C@H]1CN(c2n[nH]c3nc(N[C@H]4CC[C@H](NS(=O)(=O)CCC(F)(F)F)CC4)ncc23)CCO1  relative abundance (IGF2BP3 (Homo sapiens, UniProt O00425); inhibitor, Kinobeads competition profiling; 0.16 µM; baseline: vehicle): 1.56
O=C(Nc1cnccc1Cl)N1CCN(Cc2ccc3c(c2)OC(F)(F)O3)CC1  compound concentration (COS cells expressing human FAAH; cell lysate; 100 nM, 3 h, quantification limit 5 nM): not detected
CC(c1ccccc1)(c1ccc(O)cc1)c1ccc(O)cc1  viable cells (HepG2 spheroids, dissociated; annexin V-FITC/PI flow cytometry; 10 µM, 96 h): 48.2 ± 5.08%
O=c1ccc2ccccc2o1  point of departure (HepaRG 3D spheroids; steatosis; 168 h, high-content imaging): 752 µM
Cc1cc(C)c2c(N)c(C(=O)Nc3ccon3)sc2n1  viability (MDA-MB-231; MTT; 100 µM, 72 h): 44 ± 9%
Oc1ccc(C2(c3ccc(O)cc3)c3ccccc3-c3ccccc32)cc1  necrotic cells (HepG2 spheroids; annexin V-FITC/PI flow cytometry; 10 µM, 24 h): 6.59 ± 1.66%

Repeated from above:
Cc1cc(C)c(C#N)c(SC=CC(=O)Nc2ccon2)n1  viability (MDA-MB-231; MTT; 100 µM, 72 h): 66 ± 4%
